Measurements of several laboratories.
Numbered parts are unrelated; each lists some results of a single study. Substitutions count along the parent as printed.

Series 1
Target: Ras GTPase-activating protein-binding protein 1, full length (G3BP1, Homo sapiens, UniProt Q13283)
Chain of UniProt Q13283 (whole entry, looked up): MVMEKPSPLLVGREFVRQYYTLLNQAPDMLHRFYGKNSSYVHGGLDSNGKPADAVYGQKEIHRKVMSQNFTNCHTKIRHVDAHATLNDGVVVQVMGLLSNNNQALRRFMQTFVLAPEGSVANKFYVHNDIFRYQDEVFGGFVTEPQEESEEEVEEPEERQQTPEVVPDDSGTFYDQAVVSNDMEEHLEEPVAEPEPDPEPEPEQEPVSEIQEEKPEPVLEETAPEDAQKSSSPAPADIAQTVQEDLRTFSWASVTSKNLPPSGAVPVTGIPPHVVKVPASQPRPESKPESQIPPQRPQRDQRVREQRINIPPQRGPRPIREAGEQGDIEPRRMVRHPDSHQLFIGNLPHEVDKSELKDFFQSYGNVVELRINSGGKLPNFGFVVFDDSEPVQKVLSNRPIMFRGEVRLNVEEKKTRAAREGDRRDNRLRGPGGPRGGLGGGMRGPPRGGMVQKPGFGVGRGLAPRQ
Technique: RNA Bind-n-Seq
Molecule type: RNA
Medium: in vitro
Tested at: 200 nM
Setting: whole 134-nt RNA, ends assumed
With: 150 mM KCl
Relative to: input library
Reading: higher = stronger binding
Shared flanks, not repeated: GGGAGUUCUACAGUCCGACGAUC … UGGAAUUCUCGGGUGUCAAGG
Oligonucleotide	log2 enrichment
CCUCAAGUCCUGUGCUACACAUCGUAUGUACCGAAUCGGUUGGGUUGGUUGGGAAAGUAUUAUGUUACGCCGUUCGGAUCUGCACUUCCA	-0.2
AAGUCCUGUGCUACACAUCGUAUGUACCGAAUCGGUUUGGUUUUUUUGGUUUUUGGAAAGUAUUAUGUUACGCCGUUCGGAUCUGCACUU	-1.3
GUCCUGUGCUACACAUCGUAUGUACCGAAUCGGGGAAAGGGGUUUUUUUGGGGAGGGGAAAGUAUUAUGUUACGCCGUUCGGAUCUGCAC	0.663
CCUCAAGUCCUGUGCUACACAUCGUAUGUACCGAAUCGGUGGAAAGGAAAGGAAAGUAUUAUGUUACGCCGUUCGGAUCUGCACUUCCAG	-0.132
AAGUCCUGUGCUACACAUCGUAUGUACCGAAUCGGGAAAAAGGGAGGGUUUUUGGGAAAGUAUUAUGUUACGCCGUUCGGAUCUGCACUU	0.29
CCUGUGCUACACAUCGUAUGUACCGAAUCGGGGUUUUUUGGGGUUUUUUGGUUUUUUGGGGAAAGUAUUAUGUUACGCCGUUCGGAUCUG	-0.603
UCCUGUGCUACACAUCGUAUGUACCGAAUCGGGGAAAAAAAGGGGUUUUUGGGGUGGGGAAAGUAUUAUGUUACGCCGUUCGGAUCUGCA	0.625
UCAAGUCCUGUGCUACACAUCGUAUGUACCGAAUCGGUGGUUUGGUUUUUUUGGAAAGUAUUAUGUUACGCCGUUCGGAUCUGCACUUCC	-0.784
UCCUGUGCUACACAUCGUAUGUACCGAAUCGGGGAGGGGUUUUUGGGGUUUUUUUGGGGAAAGUAUUAUGUUACGCCGUUCGGAUCUGCA	0.645

Series 2
Target: Sal-like protein 4, full length isoform B (SALL4, Homo sapiens, UniProt Q9UJQ4-2, residues 1-616)
Technique: universal PBM
Molecule type: double-stranded DNA, one strand shown
Medium: in vitro
Tested at: not given
Setting: 8-mer, flanks averaged, mean of replicates
Reading: higher = stronger binding
Oligonucleotide	E-score
CCTCTGTC	-0.201
CACGGGTA	-0.135
ACCCCGGT	-0.304
ACCAGCCA	-0.164
TACACGTA	0.164
GCTTTTCC	-0.0429
GGGGTGCA	-0.349
AAGAGACT	-0.0113
CCGATTAC	-0.0768
GTGCCTTA	-0.0107
CAGATCCG	-0.167
GGGGCTGA	-0.167
ACGACACA	0.0588
TCACGGCA	-0.0185
ACCAGCTC	-0.16
ATTTACGG	0.202
ATACCTGC	-0.0461
GCCCCTCC	-0.248
AAATTTGC	0.22
ACGGTGCC	-0.253
AGGGCTCG	-0.211
AGGGCTAT	-0.109
CATCCATG	-0.00048
AACTTCGG	-0.00348
CACCGCAA	-0.0761

Series 3
Target: ABI1, truncated, D143A, DHFR fusion (Arabidopsis thaliana)
Technique: DHFR PCA, deep sequencing
Medium: yeast
Setting: methotrexate growth selection, single substitutions
With: (+)-ABA 710 µM
Relative to: wild-type fitted maximum
Reading: higher = stronger binding
Parent: PYL1, truncated, DHFR fusion (Arabidopsis thaliana); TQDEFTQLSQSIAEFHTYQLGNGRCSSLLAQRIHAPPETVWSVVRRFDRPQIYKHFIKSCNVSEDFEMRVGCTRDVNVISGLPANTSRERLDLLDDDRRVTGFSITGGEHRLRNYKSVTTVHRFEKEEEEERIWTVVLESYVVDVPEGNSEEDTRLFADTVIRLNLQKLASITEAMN
Variant	relative binding score [%]
D159R	64
E4I	102
M176W	93.6
N77L	100
E131V	109
N22W	102
N22K	104
D65M	98.3
V44K	54.1
T120S	111
Y141S	-4.57
K126G	111
C60G	30.3
S117F	3.7
R74T	-6.25
H122S	84.4

Series 4
Target: CCNB2, cyclin fold, Cln2 fusion (human)
Technique: yeast growth competition, sequencing
Medium: yeast
Setting: weak parent motif
Relative to: not given
Reading: higher = stronger binding
Parent: INSM1 docking peptide (human); PKAIRKLHFEDEV
Variant	normalised enrichment score
L7T	0.361
D11V	0.283
D11G	0.442
K2I	0.559
A3P	-0.0432
R5F	-0.552
K2T	0.402
I4K	0.708
R5C	0.38
A3Y	0.473
F9P	0.278
I4Q	0.445
F9Q	0.0262
E10G	0.352
K2N	0.0942
K6T	0.203
A3T	0.0657
F9H	0.568
F9L	0.369
K6M	0.444
L7H	0.144
I4E	0.00165
K2R	0.0618
I4D	-0.303
F9D	0.13

Series 5
Target: RNA binding protein fox-1 homolog 2, RRM domain, GST-SBP tag (RBFOX2, Homo sapiens, UniProt O43251-10, residues 100-194)
Technique: RNA Bind-n-Seq
Molecule type: RNA
Medium: in vitro
Tested at: 365 nM
Setting: natural RNA segment, single round, ends assumed
Relative to: no-protein control
Reading: higher = stronger binding
Shared flanks, not repeated: GGGAGUUCUACAGUCCGACGAUC … UGGAAUUCUCGGGUGCCAA
Construct (chain): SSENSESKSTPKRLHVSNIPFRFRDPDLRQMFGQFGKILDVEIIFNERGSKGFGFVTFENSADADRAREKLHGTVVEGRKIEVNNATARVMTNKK
Oligonucleotide	RBNS enrichment (R)
ACUAAUGGGAUUCAGGCAGAAGUGUCUACCUUGAUAGGUGGGGUGGGACCACAUCCUCCACUGUGGCUGACAACGCCCUUCCAAGGGAAUAUGGAAUGAGAACAUUCAUU	0.34
UGCUGAAGCAUUGUAAUCAAGUUUGUAUUGUACAGUCAAAUGUAAGAAAAUAAAAAAAUUCUAGUCUCUUUGAUAUGACAUGCAAAAUAGAAGAGUGGCAAACAAGCUCA	0.515
CCAUAAUUUUCUAGUAAUAGCCACGACCAAUUUAUUAACAGUCAGGGCCUAUCCUUGCCUGUAGUUCUCAGUCACUGGAUGCACAAAAUCACUGUGUAACAUUGGCUCAC	0.282
UUUAAUUGUGGAAAAUGAUUAUGAAGAACAUGUGUAUUUCUAUCUGGUAGUGAUGUAUAUUUUACAUUUGUCAUUUCAGUGUUACUGGAGUUUUCUUCAUUGUGCACACA	0.699
GGGGGCACAGUUGUUGUUUGGUAUCCAGGCAGUUGAGCUGAGGCAUUCAUAGGAUGUCUUAGAAGACAUUGUGGUAUGGUGCCACCUCUGACCACACAGCCUCUGCCUCA	0.347
CAAACAGCCACGCCUCUCAGGAACCCACCUGGCGGUUCCGUGAGCUCAGGCAGGCCUGACCCGGCGGCACAGCCUGGCAGGGACCUCGUCCCCAAGCCUGGCAGAAUGAG	0.328
UGAUUGCUCUUAGGUGAGUUCCGAGUCUUAAUCUAUGCAUUCAGAGAAAUAUUUUUAUAUGCGUUGUGUAAUUUAUAACAAGGGGUUUUCUUUUAGGCUUUGUUAACUGA	0.484
UUAAUUAUUCUAACAGUUACCCAUUAACAGUCGACUCCUGUAUUUCUGAGAGUCUUGUACUCACCUCUGAAAUUUAAAAACGUAUAAAGAGAGCCUGGGUUAAUCAGUUC	0.586

Repeated from above (series 4):
Variant	normalised enrichment score
R5F	-0.552
K2T	0.402
I4K	0.708
R5C	0.38
A3Y	0.473
F9P	0.278
I4Q	0.445
F9Q	0.0262
